Published values pooled from the literature.
A part holds a random share of what one study measured. Changes are numbered by the printed parent chain.

Study 1
Target: ABI1, truncated, D143A, DHFR fusion (Arabidopsis thaliana)
Technique: DHFR PCA, deep sequencing
Matrix: yeast
Setting: methotrexate growth selection, single substitutions
Together with: (+)-ABA 58 µM
Relative to: wild-type fitted maximum
Direction: higher = stronger binding
Parent: PYL1, truncated, DHFR fusion (Arabidopsis thaliana); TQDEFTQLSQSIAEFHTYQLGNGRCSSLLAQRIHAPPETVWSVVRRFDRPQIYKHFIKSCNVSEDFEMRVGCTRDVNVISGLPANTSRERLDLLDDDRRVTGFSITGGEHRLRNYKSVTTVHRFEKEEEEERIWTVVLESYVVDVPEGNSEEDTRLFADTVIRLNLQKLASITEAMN
Substitution | relative binding score [%]
D97H | 83.5
S11T | 80
A84C | 52.5
V62W | 45.2
S42F | 44.1
R90P | -7.6
V76G | -5.41
R90S | 52.7
V76C | 77.8
R69I | 91.7
N177L | 77.9
E89Q | 13.3
D153M | 5.31
K126A | 101
R74E | -3.14
I172S | 39.2
S42V | 46.4
V76W | -1.91
S80N | 33.8
N22P | 100

Study 2
Target: Cyclic AMP-dependent transcription factor ATF-1 (ATF1, Homo sapiens, UniProt P18846, residues 1-271, full length assumed)
Technique: protein-binding microarray
Molecule type: double-stranded DNA, one strand shown
Matrix: in vitro
Tested at: not given
Setting: k-mer, scored over probes, only values ≥0.25
Direction: higher = stronger binding
Target sequence (chain): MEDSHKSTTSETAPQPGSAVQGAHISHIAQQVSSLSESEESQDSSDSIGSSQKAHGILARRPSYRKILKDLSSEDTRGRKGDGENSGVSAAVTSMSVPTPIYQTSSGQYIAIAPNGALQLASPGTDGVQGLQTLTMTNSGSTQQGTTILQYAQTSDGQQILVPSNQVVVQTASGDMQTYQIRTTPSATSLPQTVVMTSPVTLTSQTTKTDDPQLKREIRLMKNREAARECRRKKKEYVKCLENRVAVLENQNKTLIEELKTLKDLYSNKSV
Sequence | E-score
CGTATAA | 0.262
CGTAATA | 0.345
GCGTCAA | 0.312
ATGACAC | 0.336
GACATCA | 0.291
AAATGAC | 0.294
ATGACCA | 0.252
ATGATGA | 0.263
CACGTGC | 0.256
ACGCGTG | 0.35
ACGATGA | 0.263
ACGACAC | 0.251
ACGCGCA | 0.254
CACGAAA | 0.257
CTATTAC | 0.308
ATGTGAC | 0.281

Study 3
Target: HLF, bZIP domain (human)
Technique: DHFR protein complementation
Matrix: yeast
Setting: single substitutions, most at no-binding floor
Relative to: wild-type JUN-FOS pair
Direction: higher = stronger binding
Parent: JUN, bZIP domain (human); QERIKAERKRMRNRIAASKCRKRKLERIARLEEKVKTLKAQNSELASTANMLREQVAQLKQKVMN; partner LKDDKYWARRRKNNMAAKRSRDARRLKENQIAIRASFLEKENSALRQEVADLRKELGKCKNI
Substitution | binding fitness [natural log]
K36G | -1.47
V35W | -1.47
T48H | -1.43
A40P | -1.53
V35S | -1.53
L52M | -1.55
E44W | -1.45
L31I | -1.49
K34T | -1.23
Q55F | -1.36
I28G | -1.38

Study 4
Target: CCNB2, cyclin fold, Cln2 fusion (human)
Technique: yeast growth competition, sequencing
Matrix: yeast
Setting: weak parent motif
Relative to: not given
Direction: higher = stronger binding
Parent: SLBP docking peptide (human); ARYKRKLLINDFG; partner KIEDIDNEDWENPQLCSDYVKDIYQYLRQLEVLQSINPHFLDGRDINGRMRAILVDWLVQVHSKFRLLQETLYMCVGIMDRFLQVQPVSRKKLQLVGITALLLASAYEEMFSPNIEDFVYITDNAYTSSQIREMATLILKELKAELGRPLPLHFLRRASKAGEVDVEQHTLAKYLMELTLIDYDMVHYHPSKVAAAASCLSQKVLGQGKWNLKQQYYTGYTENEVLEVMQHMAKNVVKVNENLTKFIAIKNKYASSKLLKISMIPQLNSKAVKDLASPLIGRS
Substitution | normalised enrichment score
ARYKRRLLINDFG [K6R] | 0.49
ARCKRKLLINDFG [Y3C] | 0.124
ARYKRKLLINWFG [D11W] | -0.147
ARYKRKLLIQDFG [N10Q] | 0.557
ARYGRKLLINDFG [K4G] | 0.331
ARYKAKALINDFG [R5A L7A] | 0.331
ARYKRKLLYNDFG [I9Y] | 0.513
ARYKRKLLINGFG [D11G] | 0.658
ARYKRKLLENDFG [I9E] | 0.509
ARYKRKLLTNDFG [I9T] | 0.529
ARNKRKLLINDFG [Y3N] | 0.476
ARMKRKLLINDFG [Y3M] | 0.627
DRYKRKLLINDFG [A1D] | 0.622
AYYKRKLLINDFG [R2Y] | 0.84

Study 5
Target: TAR DNA-binding protein 43, full length, His tag (TARDBP, Homo sapiens, UniProt Q13148, residues 1-414)
Technique: RNA Bind-n-Seq
Molecule type: RNA
Matrix: in vitro
Tested at: 20 nM
Setting: 6-mer, flanks averaged, single round
Together with: 150 mM LiCl
Relative to: input library
Direction: higher = stronger binding
Sequence | 6-mer enrichment (R)
AAGGGA | 0.992
UUAUUC | 1.03
AGGCCA | 0.908
CUGACU | 0.847
UUACUC | 0.902
CUAACC | 0.851
CUCAGC | 0.849
CGAAAA | 0.776
GGCCCA | 1.02
UACCUG | 0.865
UCUCUG | 0.894
CGCAAA | 0.861
UUCUGG | 0.974
CGAUGU | 0.981
GCACAU | 0.927
AGUCGA | 0.875
GUGAUC | 0.97
AACCGC | 0.844
GAGCAU | 0.924
UUUCAU | 0.998
AUUAAA | 0.905
UGCAAA | 0.864
CGAAGU | 0.882
CCCUGA | 0.977
UACACA | 0.856

Study 6
Target: Histone acetyltransferase KAT6A, both winged helices, GST fusion (KAT6A, Homo sapiens, UniProt Q92794, residues 1-181)
Technique: protein binding microarray
Molecule type: double-stranded DNA, one strand shown
Matrix: in vitro
Tested at: not given
Setting: 8-mer, flanks averaged, mean of 2 arrays, mostly near background
Relative to: not given
Direction: higher = stronger binding
Residues (chain): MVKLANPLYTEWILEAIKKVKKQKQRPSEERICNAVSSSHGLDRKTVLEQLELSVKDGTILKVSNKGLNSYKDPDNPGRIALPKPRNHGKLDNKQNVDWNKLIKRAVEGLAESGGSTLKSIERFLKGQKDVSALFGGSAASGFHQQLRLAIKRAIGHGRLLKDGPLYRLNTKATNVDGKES
Sequence | E-score
AAGGGGTA | -0.287
ACCTACCG | 0.00923
CAATATTG | -0.212
AACGCAGC | 0.0835
GTACGCTA | 0.0638
ACTCAGTA | -0.0216
GCGACCAA | 0.0689
GTACGATA | -0.0589
ACGAGCGA | -0.151
GATCCAGA | -0.0512
ACGTCCGG | 0.137
CCCTGCGC | 0.194
AAATCTGG | -0.0069
AACCAGGG | -0.195
CATGTGAG | -0.0956
AGCTGGAG | -0.116
ATTCAGCG | 0.151
ATAGAGCC | 0.0111
TCGACTCA | -0.149
CACGCTAG | 0.0322
CAAAGGCA | -0.0724
CCAAGGAC | -0.0499
CACCGAGG | 0.0137
AAATATGA | -0.167
ACCCTCGG | -0.0723

Study 7
Target: RNA binding protein fox-1 homolog 2, RRM domain, GST-SBP tag (RBFOX2, Homo sapiens, UniProt O43251-10, residues 100-194)
Technique: RNA Bind-n-Seq
Molecule type: RNA
Matrix: in vitro
Tested at: 365 nM
Setting: natural RNA segment, single round, ends assumed
Relative to: no-protein control
Direction: higher = stronger binding
Residues (chain): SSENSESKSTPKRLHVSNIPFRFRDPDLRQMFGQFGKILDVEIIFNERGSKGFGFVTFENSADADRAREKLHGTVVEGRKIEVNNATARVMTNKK
Sequence | RBNS enrichment (R)
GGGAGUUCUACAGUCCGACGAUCCUCUCCUAGAUUCAUUUUCAUUAUUUAUGCUAGGAUUUUCUUAUGGUUGACAUUUGAUGACAGGAAGCAAUCAUGACUCUUCAAGUGAGCUCACAGAAACCUUUCAUGUUUGGAAUUCUCGGGUGCCAA | 0.456
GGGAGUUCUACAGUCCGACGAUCUGAAAUCCUUUCUAAAUUGCAUGAAUAGGCUCUGCUAACGUGAUGAGACAAACUGAAAAUUAUUGCAAGCAUUGACUAUAAUUAUGCAGUACGUUCUCAGGAUGCAUCCAUGGAAUUCUCGGGUGCCAA | 29.4
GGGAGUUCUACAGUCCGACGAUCGGGACAGCAAAAGCCAGUAACCAUGAGUAUGAGGAAAUCUCUUUCUGUUGCUGGCUUACAGUUUCUCUGUGUGCUUUGUGGUUGCUGUCAUAUUUGCUCUAGAAGAAAAAUGGAAUUCUCGGGUGCCAA | 0.387
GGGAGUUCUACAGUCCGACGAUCUUGUGUAUAGGACUGCGUUCGUAGGCAUCCCCCCAGUUAUUCUGAAGGUCCUGUGCUGAUGGAGGCAUGACAGUCCUCUCGCAGCCUGAGGAGGGUUUUGUUCUGUCUGUUGGAAUUCUCGGGUGCCAA | 5.12
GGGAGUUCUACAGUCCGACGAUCCAUGUAUAAACAUUUAGCAUAUUUUUAUCAUAGGUCUAAAAAUAUUUGUUUACUAAAUACCUGUGAAGAAAUACCAUUAAAAAACUAUUUGGUUCUGAAUUCUUACUAGAUGGAAUUCUCGGGUGCCAA | 0.626
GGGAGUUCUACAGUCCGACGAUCAAUCAUUUGAGGGGUGUUUUGAUUUGGUUUGGUUUUUGUUUCUGUCUUUUUGGUCCAUUCAUUCACUGUUUAAAAGUUUAUGAUUCUUCCAAAAAUGAAUAUAGUUUCCUUGGAAUUCUCGGGUGCCAA | 0.855
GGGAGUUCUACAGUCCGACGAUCUGACUGUACUCACGGCUAACUUGAAGUAUUAAAAUGAGGCUGUACUCUACACACUUCCUAGUCACGCAGGAUCCCUGUAGCCAAAACAGUAUAUGUUCCAGCUGCAGAGAUGGAAUUCUCGGGUGCCAA | 0.189
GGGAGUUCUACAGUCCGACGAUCAUAUUAGAACAGCGGAGGCUCUAAAAGCCCAGGAUUCUACUCAGUUAUGAAUGAAAAUCAAACGAAGAUCCAAGCUGUACUGAUGUCAGAGGGAUGGUUCCAUUUUGACAUGGAAUUCUCGGGUGCCAA | 0.403
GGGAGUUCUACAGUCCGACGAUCUUUGCUCUUUUUGUUUUUGUUUGUCACCCCUCGAUAAAGAAAGUAUAUUCAUUUGUGUUGCUGGUUCAACCUGCUCUGUCCUGCCCACUCUUUACUUCUGGCUGUUCAAGUGGAAUUCUCGGGUGCCAA | 1.08
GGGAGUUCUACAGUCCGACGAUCUGGGGUCAUCUGGUUAUUUAGGGCAUUGAGACUGGAGCCGUGGCUCAGAUGAUUGGGGCAGAAAAGGCAGGGUGGCCCACACCUGCUCUGACUGCUAGCUUCCCACAGAUUGGAAUUCUCGGGUGCCAA | 0.559
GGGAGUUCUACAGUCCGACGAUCGAAACCUUGCAGAUUGCAGAGUUGAGAUGUGUUUUAUCUUUGUUUUAUAUUAAAAAGAUCUGUGGGAAAAUAAAGCCAGCCCUUGUUUUGGAUGUGUUGUUUCUGAAACCUGGAAUUCUCGGGUGCCAA | 0.478
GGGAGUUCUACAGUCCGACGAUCGCUUGGAUUUUAUGCAGUAGGCUUUACUACAGUACAUGGCUAAUCUUCCCCAAACUAGCUCAUUAAAGAUGAAAUAGACCAGCUCUCUUCAGUGAAGAGGACAAAUAGUUUGGAAUUCUCGGGUGCCAA | 0.316

Single results of other studies
Substance | target | assay | system | setting | how to read | measurement | value
PhoQ, residues 284 288 289 292 302 303 ASASEQ | PhoP, residues 12 14 15 18 19 TTLRV (Escherichia coli, UniProt P23836) | Sort-seq, item: YFP reporter | E. coli | PhoQ-PhoP variant library, together with: 10 µM Mg2+ | relative to: high Mg2+ state, higher = stronger signaling | fold induction | 2.62

Excerpt of the above (study 5):
Sequence | 6-mer enrichment (R)
UUACUC | 0.902
CUAACC | 0.851
CUCAGC | 0.849
CGAAAA | 0.776
GGCCCA | 1.02
UACCUG | 0.865
UCUCUG | 0.894
CGCAAA | 0.861
UUCUGG | 0.974
CGAUGU | 0.981
